Results gathered from unrelated publications.
Numbers after ± are the reported error.
Sequence of UniProt O75116 (whole entry, looked up): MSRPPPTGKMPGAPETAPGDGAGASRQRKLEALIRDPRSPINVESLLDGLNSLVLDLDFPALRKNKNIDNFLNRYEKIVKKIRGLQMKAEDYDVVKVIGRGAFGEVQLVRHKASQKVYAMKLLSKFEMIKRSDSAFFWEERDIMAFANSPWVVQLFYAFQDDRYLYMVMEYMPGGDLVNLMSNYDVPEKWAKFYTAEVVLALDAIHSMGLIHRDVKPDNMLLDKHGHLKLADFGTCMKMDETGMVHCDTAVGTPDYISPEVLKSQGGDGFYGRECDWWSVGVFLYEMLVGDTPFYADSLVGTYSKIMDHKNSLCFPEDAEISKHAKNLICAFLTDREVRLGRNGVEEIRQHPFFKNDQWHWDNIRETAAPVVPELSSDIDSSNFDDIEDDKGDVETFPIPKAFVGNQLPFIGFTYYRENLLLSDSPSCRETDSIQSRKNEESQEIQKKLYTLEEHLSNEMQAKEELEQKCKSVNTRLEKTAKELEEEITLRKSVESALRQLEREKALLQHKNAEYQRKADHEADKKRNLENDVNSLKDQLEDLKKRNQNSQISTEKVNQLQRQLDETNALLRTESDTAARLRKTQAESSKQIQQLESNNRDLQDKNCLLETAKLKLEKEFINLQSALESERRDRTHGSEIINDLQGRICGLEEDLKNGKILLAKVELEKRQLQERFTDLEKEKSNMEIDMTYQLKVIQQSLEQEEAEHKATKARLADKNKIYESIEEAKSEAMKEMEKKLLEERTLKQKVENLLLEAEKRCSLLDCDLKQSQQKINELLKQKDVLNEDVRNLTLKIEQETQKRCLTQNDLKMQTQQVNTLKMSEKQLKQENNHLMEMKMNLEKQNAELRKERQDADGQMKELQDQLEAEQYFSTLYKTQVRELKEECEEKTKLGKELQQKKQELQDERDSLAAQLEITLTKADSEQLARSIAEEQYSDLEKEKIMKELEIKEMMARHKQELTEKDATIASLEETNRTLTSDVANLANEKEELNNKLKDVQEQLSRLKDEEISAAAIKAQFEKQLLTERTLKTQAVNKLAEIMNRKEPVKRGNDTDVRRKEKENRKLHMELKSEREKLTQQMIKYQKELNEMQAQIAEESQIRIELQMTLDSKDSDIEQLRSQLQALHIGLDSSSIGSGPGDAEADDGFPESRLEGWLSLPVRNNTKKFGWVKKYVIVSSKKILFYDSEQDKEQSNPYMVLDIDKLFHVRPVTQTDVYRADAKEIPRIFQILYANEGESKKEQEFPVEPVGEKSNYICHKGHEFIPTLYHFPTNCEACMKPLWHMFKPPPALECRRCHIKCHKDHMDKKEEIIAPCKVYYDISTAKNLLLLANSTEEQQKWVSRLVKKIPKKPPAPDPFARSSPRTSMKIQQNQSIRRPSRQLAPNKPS

| SMILES | target or system | test | test system | setting | how to read | quantity | result |
| --- | --- | --- | --- | --- | --- | --- | --- |
| Clc1cc(-c2cc(Cl)c(Cl)c(Cl)c2)cc(Cl)c1Cl | – | – | PDMS-water partitioning | PCB compilation | relative to: maximum over minimum K | literature range factor | 2 |
| CO[C@H]1C[C@@H]2CC[C@@H](C)[C@@](O)(O2)C(=O)C(=O)N2CCCC[C@H]2C(=O)O[C@H]([C@H](C)C[C@@H]2CC[C@@H](OC(=O)NCCOCCOCCOCCOCCOCCOCCOCCOCCC(=O)N3CCc4cc(Cn5nc(-c6ccc7oc(N)nc7c6)c6c(N)ncnc65)ccc4C3)[C@H](OC)C2)C[C@@H](O)[C@H](C)/C=C(\C)[C@@H](O)[C@@H](OC)C(=O)[C@H](C)C[C@H](C)/C=C/C=C/C=C/1C | – | dose-escalation trial | patients with advanced solid tumours | intravenous, 1.6 mg/3 mg weekly, any grade | – | AEs leading to dose reduction | 0% |
| Clc1cc(Cl)c(-c2cc(Cl)ccc2Cl)c(Cl)c1 | – | – | fresh water | 20 °C, S30-2 sampler, 30 µm | – | log K(PDMS-water) | 6.07 ± 0.01 |
| N.N.[Cl][Pt][Cl] | – | – | mouse xenograft model | dose not given, day 4, group mean | – | body weight | 24.2 g |
| CC[C@H](C)[C@H](NC(=O)[C@H](CC(C)C)NC(=O)[C@H](Cc1c[nH]c2ccccc12)NC(=O)[C@H](CCC(N)=O)NC(=O)[C@@H](NC(=O)[C@H](Cc1ccccc1)NC(=O)[C@H](C)NC(=O)[C@H](CCCCNC(=O)COCCOCCNC(=O)COCCOCCNC(=O)CC[C@H](NC(=O)CCCCCCCCCCCCCCCCCCC(=O)O)C(=O)O)NC(=O)[C@H](CCC(N)=O)NC(=O)[C@H](C)NC(=O)[C@@H](NC(=O)[C@H](CCCCN)NC(=O)[C@H](CC(=O)O)NC(=O)[C@H](CC(C)C)NC(=O)C(C)(C)NC(=O)[C@@H](NC(=O)[C@H](CO)NC(=O)[C@H](Cc1ccc(O)cc1)NC(=O)[C@H](CC(=O)O)NC(=O)[C@H](CO)NC(=O)[C@@H](NC(=O)[C@H](Cc1ccccc1)NC(=O)[C@@H](NC(=O)CNC(=O)[C@H](CCC(=O)O)NC(=O)C(C)(C)NC(=O)[C@@H](N)Cc1ccc(O)cc1)[C@@H](C)O)[C@@H](C)O)[C@@H](C)CC)[C@@H](C)CC)C(C)C)C(=O)N[C@@H](C)C(=O)NCC(=O)NCC(=O)N1CCC[C@H]1C(=O)N[C@@H](CO)C(=O)N[C@@H](CO)C(=O)NCC(=O)N[C@@H](C)C(=O)N1CCC[C@H]1C(=O)N1CCC[C@H]1C(=O)N1CCC[C@H]1C(=O)N[C@@H](CO)C(N)=O | – | – | human, plasma | subcutaneous, 15 mg, week 8, geometric mean | – | Vz/F | 5.61 L |
| Nc1nc2cc(-c3ccc4ncc(C(=O)N5CCOCC5)n4c3)ccc2o1 | – | – | human, advanced solid tumours | 100–300 mg once daily | – | elevated AST adverse events | 42% |
| CCc1ccc(CC/C=C/c2ccc3c(c2)C(=O)CC3)cc1 | – | – | Sprague-Dawley rat, male | oral, 120 mg/kg/day, 14 days | – | Glucose | 4.63 mM |
| C[C@H]1CN(c2n[nH]c3nc(N[C@H]4CC[C@H](NS(=O)(=O)CCC(F)(F)F)CC4)ncc23)CCO1 | ROCK2 (Homo sapiens, UniProt O75116) | inhibitor, Kinobeads competition profiling | – | 0.16 µM | relative to: vehicle | relative abundance | 1.07 |
| COc1cc2c(Oc3ccc4[nH]c(C)cc4c3F)ccnc2cc1OCC1(N)CC1 | – | – | paediatric recurrent refractory sarcoma | 10 mg | – | grade 3 sinus bradycardia | 0% |
| O=C(Cc1ccc(Cl)c(Cl)c1)N1CCCCC1CN1CCCC1 (centres unmarked) | Plasmodium falciparum | – | W2 | – | – | IC50 | 2 µM |
| Clc1ccc(Cl)c(-c2cc(Cl)ccc2Cl)c1 | – | – | Sprague Dawley rat | intraperitoneal, 1 mg/kg | – | relative liver weight | 0.0416 g/g body weight |
| Cn1cc(C(F)(F)F)nc1-c1ccc(OCC(O)CNCCOc2ccc(O)c(C(N)=O)c2)cc1 (centres unmarked) | Plasmodium falciparum | – | HB3 | – | – | IC50 | 7.94 µM |
| CN1CC[C@@H](c2c(O)cc(O)c3c(=O)cc(-c4ccc(C(F)(F)F)cc4Cl)oc23)[C@@H]1CO | – | item: Nausea | relapsed or refractory haematological malignancies | oral, dose not given, grade ≥3 | – | adverse event incidence | 0% |
| O=S(=O)(Nc1ccccc1)c1ccc(NC(=S)Nc2ccccc2)cc1 | – | item: MO% | female mouse, blood | oral, 20 mg/kg daily, 14 days | – | blood cell fraction | 2.52% |
| COc1ccc(-c2c(-c3ccc(C#N)c(F)c3)nc(N3CCC(N)CC3)n(C)c2=O)cc1F | – | item: Thrombocytopenia | human patients | oral, dose not given, grade 3 to 4, dose escalation, NG | – | treatment-related adverse event incidence | 20% |
| CC[C@H](C)[C@H](NC(=O)[C@H](Cc1ccccc1)NC(=O)[C@H](CCC(=O)O)NC(=O)[C@H](CCCNC(=N)N)NC(=O)[C@H](C)NC(=O)[C@H](C)NC(=O)[C@H](CCC(N)=O)NC(=O)[C@H](CCC(=O)O)NC(=O)[C@H](CCC(=O)O)NC(=O)[C@H](CC(C)C)NC(=O)[C@H](Cc1ccc(O)cc1)NC(=O)[C@H](CO)NC(=O)[C@H](CO)NC(=O)[C@@H](NC(=O)[C@H](CC(=O)O)NC(=O)[C@H](CO)NC(=O)[C@@H](NC(=O)[C@H](Cc1ccccc1)NC(=O)[C@@H](NC(=O)CNC(=O)[C@H](CCC(=O)O)NC(=O)[C@H](C)NC(=O)CCc1cnc[nH]1)[C@@H](C)O)[C@@H](C)O)C(C)C)C(=O)N[C@@H](C)C(=O)N[C@@H](Cc1c[nH]c2ccccc12)C(=O)N[C@@H](CC(C)C)C(=O)N[C@H](C(=O)N[C@@H](CCCNC(=N)N)C(=O)NCC(=O)N[C@@H](CCCNC(=N)N)C(=O)N[C@@H](CCCCNC(=O)COCCOCCNC(=O)COCCOCCNC(=O)CC[C@H](NC(=O)CCCCCCCCCCCCCCCCC(=O)O)C(=O)O)C(=O)NCC(=O)NCC(=O)N[C@@H](CO)C(=O)N[C@@H](CCSC)C(=O)N[C@H](C(=O)N[C@@H](CCCCNc1c(NCCCCCN(O)C(=O)CCC(=O)NCCCCCN(O)C(=O)CCC(=O)NCCCCCN(O)C(C)=O)c(=O)c1=O)C(=O)O)C(C)C)C(C)C [zirconium-89 labelled] | – | ex vivo gamma counting | male Sprague-Dawley rats, kidney | intravenous, 1 nmol, 72 h, mean of 3 animals | – | tissue uptake | 4.5 ± 0.4 %ID/g |
| CN[C@@H](C)C(=O)N[C@H]1CN(S(=O)(=O)c2cccc(S(=O)(=O)N3CC[C@H]4CC[C@@H](C(=O)NC(c5ccccc5)c5ccccc5)N4C(=O)[C@@H](NC(=O)[C@H](C)NC)C3)c2)CC[C@H]2CC[C@@H](C(=O)NC(c3ccccc3)c3ccccc3)N2C1=O | – | – | patients with advanced solid tumours | 20 mg, phase I monotherapy | – | treatment-related ALT elevation incidence | 0% |

Some of these lines once more:
| SMILES | target or system | test | test system | setting | how to read | quantity | result |
| --- | --- | --- | --- | --- | --- | --- | --- |
| CC[C@H](C)[C@H](NC(=O)[C@H](Cc1ccccc1)NC(=O)[C@H](CCC(=O)O)NC(=O)[C@H](CCCNC(=N)N)NC(=O)[C@H](C)NC(=O)[C@H](C)NC(=O)[C@H](CCC(N)=O)NC(=O)[C@H](CCC(=O)O)NC(=O)[C@H](CCC(=O)O)NC(=O)[C@H](CC(C)C)NC(=O)[C@H](Cc1ccc(O)cc1)NC(=O)[C@H](CO)NC(=O)[C@H](CO)NC(=O)[C@@H](NC(=O)[C@H](CC(=O)O)NC(=O)[C@H](CO)NC(=O)[C@@H](NC(=O)[C@H](Cc1ccccc1)NC(=O)[C@@H](NC(=O)CNC(=O)[C@H](CCC(=O)O)NC(=O)[C@H](C)NC(=O)CCc1cnc[nH]1)[C@@H](C)O)[C@@H](C)O)C(C)C)C(=O)N[C@@H](C)C(=O)N[C@@H](Cc1c[nH]c2ccccc12)C(=O)N[C@@H](CC(C)C)C(=O)N[C@H](C(=O)N[C@@H](CCCNC(=N)N)C(=O)NCC(=O)N[C@@H](CCCNC(=N)N)C(=O)N[C@@H](CCCCNC(=O)COCCOCCNC(=O)COCCOCCNC(=O)CC[C@H](NC(=O)CCCCCCCCCCCCCCCCC(=O)O)C(=O)O)C(=O)NCC(=O)NCC(=O)N[C@@H](CO)C(=O)N[C@@H](CCSC)C(=O)N[C@H](C(=O)N[C@@H](CCCCNc1c(NCCCCCN(O)C(=O)CCC(=O)NCCCCCN(O)C(=O)CCC(=O)NCCCCCN(O)C(C)=O)c(=O)c1=O)C(=O)O)C(C)C)C(C)C [zirconium-89 labelled] | – | ex vivo gamma counting | male Sprague-Dawley rats, kidney | intravenous, 1 nmol, 72 h, mean of 3 animals | – | tissue uptake | 4.5 ± 0.4 %ID/g |
